Assay results pooled from the literature.
A part holds a random share of what one study measured. Substitutions count along the parent as printed.

Set 1
Target: Fragile X messenger ribonucleoprotein 1, C-terminal low-complexity region (Fmr1, Mus musculus, UniProt P35922)
Method: RNA Bind-n-Seq
Molecule type: RNA
Medium: in vitro
Concentration: 200 nM
Notes: whole 134-nt RNA, ends assumed
Added: 150 mM LiCl
Reference: input library
Direction: higher = stronger binding
All molecules: 7-deaza-guanosine replaces G
Shared flanks, not repeated: GGGAGUUCUACAGUCCGACGAUC … UGGAAUUCUCGGGUGUCAAGG
With `UAACUUUAGAGGAGGAUCUGAUGGUUAUGGCAGUGGACGUGGAUUUGGGGAUGGCUAUAAUGGGUAUGGAGGAGGACCUGGAGGUGGCAA` the log2 enrichment was 0.255.
`UCCUCAAGUCCUGUGCUACACAUCGUAUGUACCGAAUCGGGAGGGAGGAGGGAAAGUAUUAUGUUACGCCGUUCGGAUCUGCACUUCCAG` has a log2 enrichment of -0.896.
The log2 enrichment of `UCCUGUGCUACACAUCGUAUGUACCGAAUCGGGGAAAAAGGGGAGGGGUUUUUUUGGGGAAAGUAUUAUGUUACGCCGUUCGGAUCUGCA` is reported as 0.449.
`UCAAGUCCUGUGCUACACAUCGUAUGUACCGAAUCGGGGAAGGAAGGGAAGGGGAAAGUAUUAUGUUACGCCGUUCGGAUCUGCACUUCC` gave a log2 enrichment of -0.591.
`UCCUGUGCUACACAUCGUAUGUACCGAAUCAAACCCCCAAAUUUUUAAAUUUUUUUAAAAAAGUAUUAUGUUACGCCGUUCGGAUCUGCA` gave a log2 enrichment of 1.39.
For `AGUCCUGUGCUACACAUCGUAUGUACCGAAUCGGAAAAAGGAAAAAGGGGAAAAAGGGAAAGUAUUAUGUUACGCCGUUCGGAUCUGCAC`, the log2 enrichment was -0.839.
`UCAAGUCCUGUGCUACACAUCGUAUGUACCGAAUCGGUUUUUUUGGUGGAAAGGAAAGUAUUAUGUUACGCCGUUCGGAUCUGCACUUCC` gave a log2 enrichment of -0.61.
With `CUGCGCGCGGAUUUCCCUCUCUGAGGAAGUUUAUCCUUGUGCCUUCUGGAGGAUUUCUCUCUAGCUCGACUCACUCUGGACUGACUCGCU` the log2 enrichment was -1.56.
`UGGCCCUGGUGGCAUGCGGGGAGGAAGAGGUGGCCUCAUGGAUCGUGGUGGUCCCGGUGGAAUGUUCAGAGGUGGCCGUGGUGGCGACAG` has a log2 enrichment of -0.583.
The log2 enrichment of `UGUGCUACACAUCGUAUGUACCGAAUCGGGGUUUUUUUGGGGUUUUUGGGGAAAAAAAGGGGAAAGUAUUAUGUUACGCCGUUCGGAUCU` is reported as -0.296.
`AAGUCCUGUGCUACACAUCGUAUGUACCGAAUCGGUUUUUUUGGAAAGGUUUUUGGAAAGUAUUAUGUUACGCCGUUCGGAUCUGCACUU` has a log2 enrichment of -2.81.

Set 2
Target: CCND3, cyclin fold, Cln2 fusion (human)
Method: yeast growth competition, sequencing
Medium: yeast
Notes: weak parent motif
Reference: not given
Direction: higher = stronger binding
Parent: CDKN1B docking peptide (human); PSACRNLFGPVDH; partner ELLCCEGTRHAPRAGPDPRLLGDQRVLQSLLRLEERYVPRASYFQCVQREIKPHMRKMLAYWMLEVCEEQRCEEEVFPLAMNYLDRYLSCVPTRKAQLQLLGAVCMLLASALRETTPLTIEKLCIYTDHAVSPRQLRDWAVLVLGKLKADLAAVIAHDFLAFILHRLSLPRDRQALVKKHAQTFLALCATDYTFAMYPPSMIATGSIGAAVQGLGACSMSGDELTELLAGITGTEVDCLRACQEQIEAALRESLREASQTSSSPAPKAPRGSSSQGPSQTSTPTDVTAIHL
`PSACRNLVGPVDH [F8V]`: “normalised enrichment score” 0.0558.
`PSACRNLNGPVDH [F8N]` — result for “normalised enrichment score”: 0.127.
For `PSACLNLFGPVDH [R5L]`, “normalised enrichment score” read 0.102.
For `PSACRNLFHPVDH [G9H]`, “normalised enrichment score” read 0.0772.
`PSACRNLFGPQDH [V11Q]`: “normalised enrichment score” 0.14.
`PSACRNHFGPVDH [L7H]`: “normalised enrichment score” 0.157.
`PSACRCLFGPVDH [N6C]` — result for “normalised enrichment score”: 0.101.
`PSACRNLFGNVDH [P10N]`: “normalised enrichment score” 0.122.
For `PSACRNLFLPVDH [G9L]`, “normalised enrichment score” read 0.178.
`PSYCRNLFGPVDH [A3Y]` — result for “normalised enrichment score”: 0.0679.
`PSACRNNFGPVDH [L7N]` — result for “normalised enrichment score”: 0.0627.
Under “normalised enrichment score”, `PSACRNLFGPNDH [V11N]` is recorded as 0.154.
Under “normalised enrichment score”, `PSACRNLFGPVDR [H13R]` is recorded as 0.129.
`PAACRNLFGPVDH [S2A]`: “normalised enrichment score” 0.13.
For `PSACRNLFGEVDH [P10E]`, “normalised enrichment score” read 0.102.
For `PSACRNLFGPVDW [H13W]`, “normalised enrichment score” read 0.178.
`PSACRNLFGPVDQ [H13Q]`: “normalised enrichment score” 0.154.
For `PSACRNLFVPVDH [G9V]`, “normalised enrichment score” read 0.167.
For `PSACRWLFGPVDH [N6W]`, “normalised enrichment score” read 0.141.
For `PSACRNKFGPVDH [L7K]`, “normalised enrichment score” read 0.152.
Under “normalised enrichment score”, `PSACRFLFGPVDH [N6F]` is recorded as 0.0914.

Set 3
Target: RNA binding protein fox-1 homolog 2, RRM domain, GST-SBP tag (RBFOX2, Homo sapiens, UniProt O43251-10, residues 100-194)
Method: RNA Bind-n-Seq
Molecule type: RNA
Medium: in vitro
Concentration: 365 nM
Notes: natural RNA segment, single round, ends assumed
Reference: no-protein control
Direction: higher = stronger binding
Shared flanks, not repeated: GGGAGUUCUACAGUCCGACGAUC … UGGAAUUCUCGGGUGCCAA
Target sequence (chain): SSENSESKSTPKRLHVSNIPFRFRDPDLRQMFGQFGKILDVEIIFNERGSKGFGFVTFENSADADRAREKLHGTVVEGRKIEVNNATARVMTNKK
`UACAUAUUAGAGAACAAGGAAUGUGUACUUUGGUGGCUUUGAACCAAGAAAAGGUUUUAAGCCUACUGGAUGGAGUCUAAAAUUCUUAGAAAUCAACUUUAGAGCUUUGC` — result for “RBNS enrichment (R)”: 0.26.
`UGAGGACUGAACUGACCAGAUAGCGGCCCCAUCACCCCUACUGCUCCUUGGACCCCUUGGCCCAACCUGUCUGCCUGCACCAGCGUCAGGCCCCACCAUCGGGACAUCAC` — result for “RBNS enrichment (R)”: 1.78.
For `UCCCUCUGCUGCCGCCUCUGUCUGGAAAUUGGACCAGAAUUCUGAUGUCCCUCCAGCCUCCUCCCCCUCCUCUGCUGGCUCUGGCAACAGAUCCUGGGAUAUGGUAAUUG`, “RBNS enrichment (R)” read 0.731.
For `ACACCAUGCAGAACCAGAGCAGCCAGCUCUACGCAGCACUGCCUGAGAGGCUCUACAUAAUCCAGGAGGGCAGGAUCCUCUACAAGGGUAAAUCUGGCCCUUGGAACUAC`, “RBNS enrichment (R)” read 0.227.
`CCUUCCCGGCCCAACCUGAGGGAUGUGGAUUUGGGACUGUCUGGGGGCCCCUCCUGCAGCGAGGAUGGGAGGGGGUGCUGAGCUGUGAAUCCCCUGGGCAGGGGGCGACA` — result for “RBNS enrichment (R)”: 0.696.
Under “RBNS enrichment (R)”, `AACCGCAAGCUCAAAAUCUUUGUAUAGUUUUGAAAAUUGAGGAGUAGCUUUGUUUGGAAGCCUUUCUGGUGGUGGUUUUUGUUGUUGUUGUUGUUUUGUUGUUUUACUAU` is recorded as 2.34.
For `UUUGUAAAGUGGAUGGACAUGAUGGAAUUCAGUUGUCUCACCCUGAUAGCCUGGGUGUUGAUAUUCACUUUACCCGCACUCAGACACAGGCGACCUUGAAGCAGUUCUCG`, “RBNS enrichment (R)” read 0.223.
For `UGACCUUGUCUUUCUUUCUUUUCUUGAGACAUGGUCCUACUACCAACCCUGGCUGGACUGGAGCUCAGUGUAUAGACCAGGCUAGUCUCAAACUCUGCCUCUUCCUCCCA`, “RBNS enrichment (R)” read 0.481.
`CUAUCCUGGGACCUCCCCAGCCCAGGAAAAACUGGAAGCCUUCCCCCAGCAAGGCAGAAGCUUGGAGGAGGGUUGUAAAAGCAUAUUGUACCCCCUCAUUUGUUUAUCUG`: “RBNS enrichment (R)” 0.691.
`ACAGUCCCAGGAGAGAAGUCAUUAAGGGGGAACAUUGCAAGCUAUCUUUUCGUGUUCUCAGUGUAUUAUGUACGUGUGUGCUGUUGCCGCUAUGAGGGCUCGGGGCUUGC`: “RBNS enrichment (R)” 0.766.
`AACAAGUAGCAUACAUUUUGUAAUUAACAUUGAUAAACACUGUGAUUUUUUUGGUUAAGACUUUUUCAUUGAUCUGAAUUGCUUAAAUUGCAUAUAUUGUAAAAUAGGAU`: “RBNS enrichment (R)” 0.519.
Under “RBNS enrichment (R)”, `UACAAAGGUGGACUUAGAGCCAAGCACAAUCUCACAACGAUUCCAGAAUUCCCUAGAGACCUCUUGGGGGGCAACGGGCAGGCUGCAUCUCCCAGGAAACCAGGCAAGGG` is recorded as 0.533.

Set 4
Substance: PhoQ, residues 284 288 289 292 302 303 SSTLSG
Method: Sort-seq
Refers to: YFP reporter
Medium: E. coli
Notes: PhoQ-PhoP variant library
Added: 10 µM Mg2+
Reference: high Mg2+ state
Direction: higher = stronger signaling
It gave 1.15 for fold induction (PhoP, residues 12 14 15 18 19 VGHWL (Escherichia coli, UniProt P23836)).
PhoP, residues 12 14 15 18 19 NFFVT (Escherichia coli, UniProt P23836) — fold induction: 13.4.
The fold induction was 10.8 (PhoP, residues 12 14 15 18 19 TPWTL (Escherichia coli, UniProt P23836)).
PhoP, residues 12 14 15 18 19 LHHYF (Escherichia coli, UniProt P23836) — fold induction: 16.1.

Set 5
Target: ABI1, truncated, D143A, DHFR fusion (Arabidopsis thaliana)
Method: DHFR PCA, deep sequencing
Medium: yeast
Notes: methotrexate growth selection, single substitutions
Added: (+)-ABA 0.39 µM
Reference: wild-type fitted maximum
Direction: higher = stronger binding
Parent: PYL1, truncated, DHFR fusion (Arabidopsis thaliana); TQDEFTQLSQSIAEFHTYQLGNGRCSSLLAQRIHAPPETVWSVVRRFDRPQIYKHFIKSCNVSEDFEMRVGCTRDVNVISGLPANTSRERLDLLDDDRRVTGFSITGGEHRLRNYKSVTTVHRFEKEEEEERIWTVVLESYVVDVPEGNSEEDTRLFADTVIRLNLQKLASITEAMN; partner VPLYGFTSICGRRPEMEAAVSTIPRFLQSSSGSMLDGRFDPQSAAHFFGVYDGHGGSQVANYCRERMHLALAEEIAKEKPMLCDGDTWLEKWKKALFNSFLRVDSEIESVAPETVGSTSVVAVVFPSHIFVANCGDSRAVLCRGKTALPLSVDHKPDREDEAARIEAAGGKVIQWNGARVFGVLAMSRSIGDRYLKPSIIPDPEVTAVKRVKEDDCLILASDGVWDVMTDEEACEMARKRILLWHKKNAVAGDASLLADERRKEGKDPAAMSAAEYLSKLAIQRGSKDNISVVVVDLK
Under “relative binding score”, `T106Y` is recorded as 22.6%.
`A30W`: “relative binding score” 36.4%.
For `A35Q`, “relative binding score” read -9.37%.
For `N61C`, “relative binding score” read 48.5%.
For `L169I`, “relative binding score” read -2.6%.
`S140C`: “relative binding score” 3.41%.
Under “relative binding score”, `S80R` is recorded as -2.29%.
Under “relative binding score”, `G108P` is recorded as -12.3%.
For `Y115T`, “relative binding score” read 3.32%.
Under “relative binding score”, `T6R` is recorded as 58.2%.
Under “relative binding score”, `R45Q` is recorded as -19.6%.
`S59P`: “relative binding score” -2.18%.
Under “relative binding score”, `E109Q` is recorded as 17.3%.
For `I105G`, “relative binding score” read -7.49%.
`V40L`: “relative binding score” -2.07%.
Under “relative binding score”, `C60R` is recorded as 5.4%.
`H122E` — result for “relative binding score”: -9.28%.
`R24F`: “relative binding score” -2.78%.
`H122N`: “relative binding score” 8.51%.
`D75A` — result for “relative binding score”: 16.6%.

For quick reference, copied from above (set 5):
Under “relative binding score”, `G108P` is recorded as -12.3%.
For `Y115T`, “relative binding score” read 3.32%.
Under “relative binding score”, `T6R` is recorded as 58.2%.
Under “relative binding score”, `R45Q` is recorded as -19.6%.
`S59P`: “relative binding score” -2.18%.
Under “relative binding score”, `E109Q` is recorded as 17.3%.
For `I105G`, “relative binding score” read -7.49%.
`V40L`: “relative binding score” -2.07%.
